Earlier results as cited in several papers.
Each line is one published result; not all experiments were run side by side. ± gives the spread as reported. No end group written: not given here.
UniProt P0DOF5, sequence (whole entry, looked up): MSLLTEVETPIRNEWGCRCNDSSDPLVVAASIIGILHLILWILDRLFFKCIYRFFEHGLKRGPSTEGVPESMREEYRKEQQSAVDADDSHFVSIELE
UniProt P62937, sequence (whole entry, looked up): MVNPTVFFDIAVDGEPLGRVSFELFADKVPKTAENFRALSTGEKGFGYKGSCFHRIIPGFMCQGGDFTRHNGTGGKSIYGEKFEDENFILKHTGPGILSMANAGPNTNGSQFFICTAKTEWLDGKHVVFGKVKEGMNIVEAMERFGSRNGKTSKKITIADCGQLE

tyrphostin AG 835  cytopathic effect inhibition (SARS-CoV-2; viral replication; Vero E6; 20 µM): 0.05%
capsid protein (Human immunodeficiency virus 1, UniProt O93182)  Kd (PPIA (Homo sapiens, UniProt P62937); ITC): 5.3 µM
MLEPFQILSISSFILSALHFMAWTIGHLNQIKR (BM2 transmembrane domain (Influenza B virus))  pKa (solid-state NMR, refers to: His27; peptide, lipid membrane; average of tetrad pKa values): 6.4
M2 transmembrane peptide (Influenza A virus)  pKa (solid-state NMR, refers to: His37; virus-mimetic membrane with cholesterol; membrane-bound tetramer, macroscopic, third protonation): 4.9
GCCSNPVCHLEHSNLC (α-conotoxin MII; ends and bridges not checked; cysteine pairing not given here; sequence looked up)  nicotine reward (peptide, mice, conditioned place preference; dose not given): decreased
Thimerosal  IC50 (SARS-CoV-2; cytopathic effect; Caco-2): 1690 ± 130 nM
GKGDFRI (sequence looked up)  IC50 (SARS-CoV-2; viral replication; peptide): 2.96 µg/mL
M2 transmembrane domain (Influenza A virus, UniProt P0DOF5)  pKa (solid-state NMR, refers to: His37; lipid bilayers; tetramer, third protonation): 6.3

A few entries again:
MLEPFQILSISSFILSALHFMAWTIGHLNQIKR (BM2 transmembrane domain (Influenza B virus))  pKa (solid-state NMR, refers to: His27; peptide, lipid membrane; average of tetrad pKa values): 6.4
